Measurements of several laboratories.
Lines come from different studies, so protocols differ. Values joined by “and” are separate records of one study, mostly repeats; a detail may differ. ± gives the spread as reported.

COc1ccc(CNc2nc(-c3ccc(C(=O)O)cc3)nc3c2c2ccccc2n3C)cc1Cl
body weight (NSG mice; dose not given, day 4 of treatment): 23.8 g and 21.4 g and 22.4 g and 23.3 g

C1=C/COCc2cc(ccc2OCCN2CCCC2)Nc2nccc(n2)-c2cccc(c2)COC/1
body weight (BALB/c mice, rhEPO-induced polycythemia; 120 mg/kg, day 2): 20.1 g and 19 g and 18.2 g and 18.7 g and 18.9 g

COc1cc(N2CCC(N3CCN(C)CC3)CC2)ccc1Nc1ncc(Cl)c(Nc2ccccc2P(C)(C)=O)n1
body weight (nude mice, NCI-H3122 xenograft; intraperitoneal, 10 mg/kg every other day, day 11): 23.3 g and 23.4 g and 24.4 g and 21.6 g and 24.6 g

COc1cccc2c1C(=O)c1c(O)c3c(c(O)c1C2=O)C[C@@](O)(C(=O)CO)C[C@@H]3O[C@H]1C[C@H](N)[C@H](O)[C@H](C)O1
body weight (BALB/c mice, 4T1 tumour model; 2 mg/kg, day 0): 19 ± 0.28 g

CCc1cnc(NC(=O)c2cc(S(=O)(=O)N3CCOCC3)ccc2N(C)C2CCCC2)s1
body weight (mice bearing HCC827-GR xenografts; dose not given): not toxic

O=C(Nc1cccc2cccnc12)c1cnccn1
body weight (NOD/SCID mice MIA PaCa-2 xenograft; intraperitoneal, 10 to 40 mg/kg): no effect

O=C1NC(=O)/C(=C/c2ccc3ncnc(N4CCC(F)(F)CC4)c3n2)S1
body weight (NSG mice; dose not given, day 4): 16 g and 18.7 g and 15.6 g and 16.1 g

CCc1c(C)nc(-c2ccc(Cl)s2)nc1Nc1ccc(CC(=O)O)cc1
body weight (mice, chronic ethanol plus binge; intraperitoneal, 0.3 mg/kg daily, ethanol diet 4 weeks, dosed last two; reference: vehicle): no effect

CCc1nn(C)c2nc(-c3ccc(C(=O)O)cc3)nc(NCc3ccc(F)cc3)c12
body weight (NSG mice; dose not given, day 3 of treatment): 21.4 g and 20.3 g and 22.1 g and 19.8 g

Cc1cnc(Nc2ccc(OCCN3CCCC3)cc2)nc1Nc1cccc(S(=O)(=O)NC(C)(C)C)c1
body weight (BALB/c mice, rhEPO-induced polycythemia; 120 mg/kg, day 0): 18 g and 19.4 g and 17.8 g and 19.2 g and 18.4 g and 18.3 g

A few entries again:
COc1cccc2c1C(=O)c1c(O)c3c(c(O)c1C2=O)C[C@@](O)(C(=O)CO)C[C@@H]3O[C@H]1C[C@H](N)[C@H](O)[C@H](C)O1
body weight (BALB/c mice, 4T1 tumour model; 2 mg/kg, day 0): 19 ± 0.28 g
